Measurements collected from several papers.
Numbered parts are unrelated; each lists some results of a single study.

Series 1
Target: Phosphate system positive regulatory protein PHO4, full length, GST-tagged (PHO4, Saccharomyces cerevisiae, UniProt P07270, residues 1-312)
Method: competition protein-binding microarray
Molecule type: double-stranded DNA, one strand shown
Matrix: in vitro
Tested at: 2 µM
Setting: whole 60-bp probe, lowest competitor level
With: Cbf1 competitor, 0.05 µM
Reading: higher = stronger binding
Constant ends, left off below: … GTCTTGATTCGCTTGACGCTGCTG
Construct (chain): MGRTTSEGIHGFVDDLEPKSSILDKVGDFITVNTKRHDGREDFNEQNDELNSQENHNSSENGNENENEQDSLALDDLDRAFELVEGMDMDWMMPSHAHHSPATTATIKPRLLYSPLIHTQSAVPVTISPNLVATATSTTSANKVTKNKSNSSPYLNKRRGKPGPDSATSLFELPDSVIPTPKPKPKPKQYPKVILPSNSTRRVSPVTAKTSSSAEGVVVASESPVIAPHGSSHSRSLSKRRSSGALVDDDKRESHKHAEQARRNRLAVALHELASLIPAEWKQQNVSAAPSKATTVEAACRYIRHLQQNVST
For `CAAGTGTTGTTGGTGCTCGTGGTAATGCAGCGACTT`, the fluorescence intensity was 9760 a.u.
With `ACACACAAATAGTTACACGTGAGAGAAAGGAAGGTA` the fluorescence intensity was 14700 a.u.
`CTTTCCCGATCTTGTCACGTGACTTTAGCACATTTG` gave a fluorescence intensity of 14100 a.u.
`CGTCCTAGTGATTGTCTCGTGGGTGCCATGAGGAAG` has a fluorescence intensity of 12300 a.u.
`CTTCTGTAAATTTGCTTCGTGGGTGGACGCGCCCCG` gave a fluorescence intensity of 6420 a.u.
For `CTTTCCCGATCTTGTTCTGTGGGTGTAGCACATTTG`, the fluorescence intensity was 4820 a.u.
The fluorescence intensity of `GAGTGGTAGGGAAAGCACGTGTGGATTATTTACGAT` is reported as 17500 a.u.
The fluorescence intensity of `GCCTCCTTAGATTGCCCCGTGCCAGCAATGGTCATT` is reported as 9470 a.u.
`GTCTTGTCTCATTGGTTAGTGGGTGTCCCCACTTCA` has a fluorescence intensity of 5670 a.u.
`CCGCCCGATATATATCACATGTAGCTGTGTAATATG` has a fluorescence intensity of 8180 a.u.
`CGTCCTAGTGATTGCATAGTGGGTGCCATGAGGAAG` gave a fluorescence intensity of 6730 a.u.
The fluorescence intensity of `CTTTCCCGATCTTGAATAGTGGGTGTAGCACATTTG` is reported as 4110 a.u.
The fluorescence intensity of `ATTTGACAGCATTTTCACGTGCAAACTGGAAGGAAT` is reported as 14500 a.u.
`CCTATGTATTACCATCACGTGGGTAGGGAAGACTAC` gave a fluorescence intensity of 19700 a.u.
For `TATGTATGCCTATTTCACATGTTACTAACTGAAGAC`, the fluorescence intensity was 7270 a.u.
`TTTTTCGATTTTGTTTTTGTGTCGCAAAATAACTAA` has a fluorescence intensity of 2920 a.u.
The fluorescence intensity of `CCTCCTCTTTTTTTTCACGTGCTTTGCTGATGTAAG` is reported as 15100 a.u.
`AGTTGCTTTCATTTCGGCGTGATGGTACGGCACCCA` has a fluorescence intensity of 4670 a.u.

Series 2
Target: Histone acetyltransferase KAT6A, winged helix 1, GST fusion (KAT6A, Homo sapiens, UniProt Q92794, residues 1-85)
Method: protein binding microarray
Molecule type: double-stranded DNA, one strand shown
Matrix: in vitro
Tested at: not given
Setting: 8-mer, flanks averaged, mean of 2 arrays, mostly near background
Baseline: not given
Reading: higher = stronger binding
Target sequence (chain): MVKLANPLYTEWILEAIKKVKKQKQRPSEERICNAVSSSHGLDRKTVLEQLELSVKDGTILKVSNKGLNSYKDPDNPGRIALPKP
The E-score of `ATCCTCAC` is reported as -0.174.
With `ACAATTGG` the E-score was -0.229.
With `ATAAACCA` the E-score was -0.0391.
With `ACGGGCAG` the E-score was 0.14.
The E-score of `CGTACTGC` is reported as 0.17.
For `AAGCGCCG`, the E-score was 0.433.
With `AAACAATT` the E-score was -0.0899.
The E-score of `GGTATTGA` is reported as -0.0337.
With `AGTACGAT` the E-score was -0.12.
`AAGCAGCC` has an E-score of -0.0465.
With `CTACTAGA` the E-score was -0.14.
`ATGGGTTC` gave an E-score of -0.185.
`GGGCACAA` has an E-score of -0.0384.
`ATTCAGGA` gave an E-score of -0.12.
`CTACCTCC` gave an E-score of -0.108.
The E-score of `ACTCAATG` is reported as -0.111.
With `CTGCTGGC` the E-score was 0.0802.
`ATTAGGGA` has an E-score of -0.123.
`AAGGCAAG` gave an E-score of -0.358.
The E-score of `GTCGTAAA` is reported as -0.0278.
For `ATTATAAC`, the E-score was 0.0901.
`TCAGCAAA` has an E-score of -0.21.
With `ACGTTAAA` the E-score was -0.0975.
For `GTATTGGA`, the E-score was -0.00724.
The E-score of `ACCTAAAC` is reported as -0.0288.

Series 3
Target: Myc proto-oncogene protein, bHLH-zipper, MAX partner unstated (MYC, Homo sapiens, UniProt P01106, residues 368-449)
UniProt P01106, sequence (368-449, looked up): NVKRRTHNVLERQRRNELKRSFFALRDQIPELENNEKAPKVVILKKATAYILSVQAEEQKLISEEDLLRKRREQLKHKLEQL
Method: protein-binding microarray
Molecule type: double-stranded DNA, one strand shown
Matrix: in vitro
Tested at: not given
Setting: k-mer, scored over probes, only values ≥0.25
Reading: higher = stronger binding
For `CACCGCAC`, the E-score was 0.277.
`CCCGCCCA` has an E-score of 0.38.
`CATGTTGC` gave an E-score of 0.387.
For `ACAGCGTG`, the E-score was 0.405.
With `GCACGCGC` the E-score was 0.461.
For `GTGGCGAA`, the E-score was 0.272.
`GCGTGAGA` gave an E-score of 0.27.
`AGTGCGTG` gave an E-score of 0.326.
The E-score of `CACGTCCA` is reported as 0.269.
`CACGCCGC` gave an E-score of 0.418.
For `AGCACACA`, the E-score was 0.295.
`CCCGTGTA` has an E-score of 0.276.
For `CCACGTCA`, the E-score was 0.269.
For `ACATGCAA`, the E-score was 0.273.
`CACACCGC` gave an E-score of 0.279.
The E-score of `AAACGTGT` is reported as 0.372.
`ACACCTGC` has an E-score of 0.281.
With `ACGTGCGA` the E-score was 0.413.
The E-score of `GCACATGC` is reported as 0.465.
The E-score of `ATGGCATC` is reported as 0.277.
`GCATGGGC` has an E-score of 0.388.
For `CCCACCCA`, the E-score was 0.319.
With `GAGGCGCA` the E-score was 0.298.
With `CCACGTGA` the E-score was 0.482.
`ATATGGCC` gave an E-score of 0.291.

Series 4
Target: RNA binding protein fox-1 homolog 2, RRM domain, GST-SBP tag (RBFOX2, Homo sapiens, UniProt O43251-10, residues 100-194)
Method: RNA Bind-n-Seq
Molecule type: RNA
Matrix: in vitro
Tested at: 365 nM
Setting: natural RNA segment, single round, ends assumed
Baseline: no-protein control
Reading: higher = stronger binding
Constant ends, left off below: GGGAGUUCUACAGUCCGACGAUC … UGGAAUUCUCGGGUGCCAA
Target sequence (chain): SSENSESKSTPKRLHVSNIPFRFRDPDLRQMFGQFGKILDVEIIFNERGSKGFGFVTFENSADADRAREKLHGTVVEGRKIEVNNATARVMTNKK
`AUAGUAGUUUACUAUUAACUAGGAAGACUGGUGUAUGAGGAGGGAGACAUUCUGUAAUAAGAUUAAAACCUAAAGUCAGCUGUGUAACAUUCCAUGAAAGAUGCAUUCAU`: “RBNS enrichment (R)” 0.383.
For `UGAAAGGCUUUUGGUGAAAAUGAAGGGAUUUCAUUUGAAAUUACAGCAUGAUGAAUUUUGCAUGGGUGGCCAGCCAGCUAGCCCAUAACUGAUAGAUGCAUUAGAAGUCA`, “RBNS enrichment (R)” read 2.1.
For `CUACCCCAGAGAGCCUUGAAGUUCCUGAAGUCACAGAGGAUGUAGACCGUGCCACCACAUGCCAGGUUAUCAAGCACCAGCAGCUGAUGGAACAGGCUGUGGCCCCUGAG`, “RBNS enrichment (R)” read 0.267.
`UAGCACAGAGGAUGCCCCAACAAACUCAUGGCGUUGAAACCACACAGUUCUCAUUACUGUUAUUUAUUAGCUGUAGCAUUCUCUGUCUCCUCUCUCUCCUCCUUUGACCU` — result for “RBNS enrichment (R)”: 0.34.
For `GUGGGGUAAGUGCCUCCAGGAAGGCAGGCAGCCUGCCUUAGACUUGCAGCCCGGCUGUGGGAAUGAAUCAUUGGAGUAAUAAACUACAGUGGUUGAUCCACAUGUGCUCG`, “RBNS enrichment (R)” read 0.347.
`GGAACAUGUUGGUGGAAGCUUGUACAAUAGAACACAUUGGUGGGAGCUUGUACAUACUUUUUUAUGGAGCAUUACUUACGAUUUUUUAAGUAAAAUGUUUUGAAACCAAA`: “RBNS enrichment (R)” 0.392.
`UACUAAAAGGUUCAUUGGUUCCAAUCACAGCUCAUAGGUAGAGCAAAGAAAGGGUGGAUGGAUUGAAAAGAUUAGCCUCUGUCUCGGUGGCAGGUUCCCACCUCGCAAGC` — result for “RBNS enrichment (R)”: 0.479.
`UUUAAUAUGUACAGUUAGUUUGCUCUGGAUUAGUAUAUAAGUACAUUUUAUUAGGGGUUGUGACAACAUUAUUAAACUUUUGUGUAUAUAAAGCCAGGUGUCUUAGCUAG` — result for “RBNS enrichment (R)”: 0.562.

Some of these lines once more (series 4):
For `UGAAAGGCUUUUGGUGAAAAUGAAGGGAUUUCAUUUGAAAUUACAGCAUGAUGAAUUUUGCAUGGGUGGCCAGCCAGCUAGCCCAUAACUGAUAGAUGCAUUAGAAGUCA`, “RBNS enrichment (R)” read 2.1.
For `CUACCCCAGAGAGCCUUGAAGUUCCUGAAGUCACAGAGGAUGUAGACCGUGCCACCACAUGCCAGGUUAUCAAGCACCAGCAGCUGAUGGAACAGGCUGUGGCCCCUGAG`, “RBNS enrichment (R)” read 0.267.
`UAGCACAGAGGAUGCCCCAACAAACUCAUGGCGUUGAAACCACACAGUUCUCAUUACUGUUAUUUAUUAGCUGUAGCAUUCUCUGUCUCCUCUCUCUCCUCCUUUGACCU` — result for “RBNS enrichment (R)”: 0.34.
For `GUGGGGUAAGUGCCUCCAGGAAGGCAGGCAGCCUGCCUUAGACUUGCAGCCCGGCUGUGGGAAUGAAUCAUUGGAGUAAUAAACUACAGUGGUUGAUCCACAUGUGCUCG`, “RBNS enrichment (R)” read 0.347.
`GGAACAUGUUGGUGGAAGCUUGUACAAUAGAACACAUUGGUGGGAGCUUGUACAUACUUUUUUAUGGAGCAUUACUUACGAUUUUUUAAGUAAAAUGUUUUGAAACCAAA`: “RBNS enrichment (R)” 0.392.
`UACUAAAAGGUUCAUUGGUUCCAAUCACAGCUCAUAGGUAGAGCAAAGAAAGGGUGGAUGGAUUGAAAAGAUUAGCCUCUGUCUCGGUGGCAGGUUCCCACCUCGCAAGC` — result for “RBNS enrichment (R)”: 0.479.
`UUUAAUAUGUACAGUUAGUUUGCUCUGGAUUAGUAUAUAAGUACAUUUUAUUAGGGGUUGUGACAACAUUAUUAAACUUUUGUGUAUAUAAAGCCAGGUGUCUUAGCUAG` — result for “RBNS enrichment (R)”: 0.562.
